Results gathered from unrelated publications.
Target: 5-hydroxytryptamine receptor 2B (HTR2B, Homo sapiens, UniProt P41595)
UniProt P41595, sequence (whole entry, looked up): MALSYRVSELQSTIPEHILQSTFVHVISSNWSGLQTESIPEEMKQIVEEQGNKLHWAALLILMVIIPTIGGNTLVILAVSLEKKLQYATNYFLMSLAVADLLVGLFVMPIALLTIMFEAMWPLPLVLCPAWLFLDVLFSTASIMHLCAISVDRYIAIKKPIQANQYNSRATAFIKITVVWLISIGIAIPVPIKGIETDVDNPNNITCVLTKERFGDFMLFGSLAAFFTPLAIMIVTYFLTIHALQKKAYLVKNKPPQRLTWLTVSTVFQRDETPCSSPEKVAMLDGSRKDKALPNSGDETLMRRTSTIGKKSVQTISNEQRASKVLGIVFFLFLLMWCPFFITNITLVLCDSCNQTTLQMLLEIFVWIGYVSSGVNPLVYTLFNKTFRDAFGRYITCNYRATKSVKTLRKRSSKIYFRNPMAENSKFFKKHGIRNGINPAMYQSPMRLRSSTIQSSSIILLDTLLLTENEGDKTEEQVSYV

The inhibition of `CC(C)Cn1c(SCC(=O)N2CCc3ccccc3C2)nc2cc(Cl)ccc2c1=O` is reported as 2% (ligand displacement, radioligand; 10 µM).
The inhibition of `Cn1ccc2cc(-n3c(=O)[nH]c4sc5c(c4c3=O)CCCC5)ccc21` is reported as 92% (ligand displacement, radioligand; 10 µM).
For `CNC(=O)C[C@H](Cc1ccc(C#N)cc1)NC(=O)c1cc(-c2ccc(CN[C@H](C)c3ccc(C)cc3)o2)ccc1Cl`, the inhibition was 37% (agonist response, antagonist; human cells; 10 µM, 5-HT2B antagonist).
With `COc1ccc(C(=O)Nc2c(-c3cccs3)nc3ccccn23)cc1` the inhibition was less than 50% (ligand displacement, radioligand; 10 µM).
With `CC1Cc2ccccc2N1C(=O)CN1CCN(Cc2ccccc2)CC1` (stereo not shown) the inhibition was 80% (radioligand binding; concentration not given, with: [3H]LSD).
`O=C1c2sc(-c3ccc(N4CCC(F)C4)nc3F)nc2CCN1c1cccnc1` (stereo not shown) has an inhibition of -7% (ligand displacement, radioligand; 1 µM).
With `CO[C@@H](C)c1c(NC(=O)Nc2cnc(-n3nccn3)c(C(F)(F)F)c2)cnc2sc(C)nc12` the inhibition was 68% (ligand displacement, radioligand; 10 µM).
With `C[Si](C)(C)C[C@H](CN)CC(=O)O` the inhibition was -14% (ligand displacement, radioligand; 250 µM).
With `COCC(=O)N1CCc2cc(-c3csc(NC(=O)c4cc(OC)cc(OC)c4)n3)ccc21` the inhibition was 24% (cell-free assay; 10 µM).
`Cc1ccnc(OC[C@H]2CN(CCN3CCc4ccccc43)CCO2)c1` has an inhibition of 84.6% (radioligand binding; concentration not given, with: [3H]LSD).
With `Cc1cccc(O[C@H]2CCC[C@@H](C(C)CNCc3ccncc3)C2)c1` (relative stereo) the inhibition was 72% (ligand displacement; 10 µM).
`COc1ncc2nc(C)n(Cc3ncc(S(N)(=O)=O)cc3F)c2c1-c1ccccc1` has an inhibition of -12.6% (antagonist, cell-based; 10 µM).
`c1ccc(OC[C@H]2CN(CCN3CCc4ccccc43)CCO2)nc1` gave an Emax of 6.9% (calcium signal, agonist, fluorescence).
`Cc1[nH]nc2c1N=C(c1ccccc1Cl)c1cnc(N3CCOCC3)cc1N2` gave an inhibition of 3% (cell-free assay; 10 µM).
The inhibition of `O=C(CN1CCO[C@@H](COc2cccc(Cl)c2)C1)N1CCc2ccccc21` is reported as 74.6% (radioligand binding; concentration not given, with: [3H]LSD).
The inhibition of `C[Si]1(C[C@H](CN)CC(=O)O)CCCC1` is reported as 6% (ligand displacement, radioligand; 70 µM).

For quick reference, copied from above:
With `COc1ccc(C(=O)Nc2c(-c3cccs3)nc3ccccn23)cc1` the inhibition was less than 50% (ligand displacement, radioligand; 10 µM).
